Experimental data from different studies.
Each numbered part is a random draw from the data of one study; scales do not carry over between parts. Substitutions count along the parent as printed.

Set 1
Target: CCNA2, cyclin fold, Cln2 fusion (human)
Technique: yeast growth competition, sequencing
Sample: yeast
Notes: strong parent motif
Relative to: not given
Direction: higher = stronger binding
Quantity: normalised enrichment score
Starting sequence: RBL1 docking peptide (human); GSAKRRLFGEDPP; partner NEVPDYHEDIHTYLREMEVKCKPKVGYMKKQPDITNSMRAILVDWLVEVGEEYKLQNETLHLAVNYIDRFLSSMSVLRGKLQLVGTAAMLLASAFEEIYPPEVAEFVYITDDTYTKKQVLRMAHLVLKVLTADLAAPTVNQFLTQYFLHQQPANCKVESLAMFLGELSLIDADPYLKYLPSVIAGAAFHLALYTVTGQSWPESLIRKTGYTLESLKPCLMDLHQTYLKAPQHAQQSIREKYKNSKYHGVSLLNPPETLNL
Substitution = A3R; value = 1.95
Substitution = F8R; value = 0.469
Substitution = D11T; value = 5.7
Substitution = G1K; value = 6.46
Substitution = D11A; value = 5.88
Substitution = E10C; value = 5.73
Substitution = P12G; value = 5.25
Substitution = E10L; value = 5.58
Substitution = R5G; value = 0.78
Substitution = D11R; value = 4.91
Substitution = R5Y; value = 0.459
Substitution = P13F; value = 5

Set 2
Target: Protein max, full length (MAX, Homo sapiens, UniProt P61244-2, residues 1-151)
Technique: protein-binding microarray
Molecule type: double-stranded DNA, one strand shown
Sample: in vitro
Tested at: not given
Notes: k-mer, scored over probes, only values ≥0.25
Direction: higher = stronger binding
Quantity: E-score
Oligonucleotide = ACGAGCAT; value = 0.308
Oligonucleotide = ATCGTGCC; value = 0.254
Oligonucleotide = ATTCATGC; value = 0.289
Oligonucleotide = AGTGTGCA; value = 0.254
Oligonucleotide = CATGTGAG; value = 0.457
Oligonucleotide = CACGTGTC; value = 0.495
Oligonucleotide = CACATGAG; value = 0.411
Oligonucleotide = CGTGGCTC; value = 0.397
Oligonucleotide = CGCGTGGA; value = 0.45
Oligonucleotide = TCACGCGA; value = 0.377
Oligonucleotide = TCCACGCA; value = 0.264
Oligonucleotide = CTGAGCAC; value = 0.263
Oligonucleotide = CGCGCGGA; value = 0.276
Oligonucleotide = ACGCTGCA; value = 0.28
Oligonucleotide = ACACGCGC; value = 0.439
Oligonucleotide = CGTGTGGC; value = 0.351
Oligonucleotide = TGCACGCA; value = 0.34

Set 3
Target: RNA binding protein fox-1 homolog 2, RRM domain, GST-SBP tag (RBFOX2, Homo sapiens, UniProt O43251-10, residues 100-194)
Technique: RNA Bind-n-Seq
Molecule type: RNA
Sample: in vitro
Tested at: 365 nM
Notes: natural RNA segment, single round, ends assumed
Relative to: no-protein control
Direction: higher = stronger binding
Quantity: RBNS enrichment (R)
Constant ends, left off below: GGGAGUUCUACAGUCCGACGAUC … UGGAAUUCUCGGGUGCCAA
Target sequence (chain): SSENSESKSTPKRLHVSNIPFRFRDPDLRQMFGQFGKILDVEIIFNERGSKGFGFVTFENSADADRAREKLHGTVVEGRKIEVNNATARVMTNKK
Oligonucleotide = UAUUAUAAACCCACCUCCUAAUAGGAAGCCAAGUACUAUUUGAUACAGUGGUAAAAACCAAACUACCUUGAAUUUUUUUAAGGCAACUUAUGAAUAAUGCUCAUUUUCAC; value = 0.357
Oligonucleotide = ACAAAAUGCAGAAAUUCCUUCUGAAGGACUAAAGCGACCAGCUGUCUGCCACACCUGCAGUAACACAGAGCAACAGAUUCCCAGCCCGUGAUGAGAGCCUGUAGCUCGUG; value = 0.467
Oligonucleotide = UCUCCACAGAAGCAGCUGGAAGAGAACUCGAGGGGCUGUGCUGCAGGCCUCCCCUCGAAAGACACUGGGAGGUCAGCAUGUUCCACAGGUGUUCAGAGGGAGUCUGCUAC; value = 8.58
Oligonucleotide = CUGAACAAACCCUGUAUCAAGUAUCUGAAAUUUAAGGAGAUCAAACAGACUGUGACCAAGGUCCUGUUGAGAAUUUAACAAGGCAAAAUCUGUCCUGUCACAGAAGUUUC; value = 0.331
Oligonucleotide = AAAGGUACUAUAUUUGCCAGACUCUAGACAUAAGAUAUUGUACAUAAAGAGAAUUUUUUUUGCCUUUAAAUAGAUAAAAGUAUCUAUCAGAUAAAAAUCAGGUUGUAAGU; value = 0.551
Oligonucleotide = GAAGUAGUUACCGUACCUUAGGAUCAUUUGUAUGUCUACUUUAUCUUAACAAAGAAAACCUGGUGCUUGCAGUAUAGCUGUAGAAUUUUCUAUGUUCAAGACGUAGCUGC; value = 0.369
Oligonucleotide = CCAGGACAGCCACAGUUGUACUGAGGGGGGCUGACAUGUUUGGCAUCCUGGCUAUAGUAUUGUAUACACAGGGCCACCAGCCCCGCCCUAGUGGUCAGCUCUGAGGGGGG; value = 0.268
Oligonucleotide = UUCUUAACAAGCCACUCUGUCCCAUAACAUGCACUUGGAAUCUCUCCUAAGUUCCAGAGGCCCCACUGUUCCAGUUUCAAGCCUUCAUUUUGGAGUCUGUUUGGGAACUU; value = 0.376
Oligonucleotide = UUCAUGAAUCUUUCAUACAUAUAUAUAUUUGUAACAUUGUAAAGUAUGUGAGUAGUCUUAUGUAAAGUAUGUUUUUACAUUAUGCAAAUAAAACCCAAUACUUUUGUCCA; value = 0.653
Oligonucleotide = UUCAUGUCAAGAUCACUACAACACCAUCUCUUCCAUUCACAAAGUUGAGUCUGUUCCUUUCAUCUAAUCCAUUGGUUCUCAACCUUCCUAAUGCUGUAACCCUUUAAUAC; value = 0.838
Oligonucleotide = ACGAUGCGAGCCUUCCGGUCAGUGACGUGUGGGCAGAAGCGCACGGAGCCUGCCUGCCUCUGCCGUCCUCAGUUUCCUUUCAUGAGGCUUCUAGCCAAAGAUGAUAAAGG; value = 0.577
Oligonucleotide = GUCUAGAGGAAUUUUUGUUUCCUUGAUUAACAUGAUUUUCCUGGUUGUUACAUCCAGGGCAUGGCAGUGGCCUCAGCCUUAAACUUUUGUUCCUACUCCCACCCUCAGCG; value = 0.321

Single results of other studies
Molecule = PhoQ, residues 284 288 289 292 302 303 SVHLDV; target = PhoP, residues 12 14 15 18 19 LFHKL (Escherichia coli, UniProt P23836); assay = Sort-seq, measured: YFP reporter; system = E. coli; conditions = PhoQ-PhoP variant library, added: 10 µM Mg2+; scale = relative to: high Mg2+ state, higher = stronger signaling; quantity = fold induction; value = 1.35
